Results from different studies.
Protocols differ between the studies behind these lines. Numbers after ± are the reported error.
Organism: Escherichia coli

SMILES | assay | system | conditions | scale | MIC
CCCCCCC/C=C/C(=O)N1C(=O)/C(=C(/C)O)C(=O)C1CO (centres unmarked) |  | K12 ΔtolC |  |  | 50 µg/mL
COc1cc(C(=O)Nc2ccc(C(=O)N[C@@H](CC(N)=O)C(=O)Nc3ccc(C(=O)Nc4ccc(C(=O)Nc5ccc(C(=O)O)cc5)c(O)c4OC(C)C)cc3)cc2)ccc1C#N |  | K12 ΔtolC |  |  | < 0.03 µg/mL
C[C@@H](O)[C@H]1C(=O)N2C(C(=O)O)=C(SCCN=CN)C[C@H]12 |  | NCCP 16046 carbapenem-resistant, Mueller-Hinton broth | 16 h, 37 °C |  | 8 µM
CC[C@H](C)[C@H](NC(=O)[C@H](CCCCN)NC(=O)[C@H](CCCCN)NC(=O)[C@H](Cc1ccccc1)NC(=O)[C@@H](NC(=O)[C@@H](NC(=O)[C@H](CCCNC(=N)N)NC(=O)[C@H](Cc1ccccc1)NC(=O)[C@@H](NC(=O)[C@H](CCCCN)NC(=O)[C@H](CCCCN)NC(=O)[C@@H](N)CCSC)[C@@H](C)CC)C(C)C)[C@@H](C)CC)C(=O)N[C@@H](CC(C)C)C(=O)N[C@@H](CCCCN)C(=O)N[C@@H](CCCNC(=N)N)C(=O)N[C@@H](CC(C)C)C(=O)N[C@H](C(=O)N[C@H](C(=O)O)C(C)C)[C@@H](C)CC |  | ATCC 25922 | 16 to 18 h |  | 8 µg/mL
CC[C@H](C)[C@H](NC(=O)[C@@H]1CCCN1C(=O)[C@@H]1CCCN1C(=O)[C@H](CCCNC(=N)N)NC(=O)[C@H](Cc1ccccc1)NC(=O)[C@@H](N)CCCNC(=N)N)C(=O)N[C@@H](CCCNC(=N)N)C(=O)N[C@@H](CCCNC(=N)N)C(=O)N1CCC[C@H]1C(=O)N1CCC[C@H]1C(=O)N[C@H](C(=O)N[C@@H](CCCNC(=N)N)C(=O)N1CCC[C@H]1C(=O)N1CCC[C@H]1C(=O)N[C@@H](Cc1ccccc1)C(=O)N[C@@H](Cc1ccc(O)cc1)C(=O)N1CCC[C@H]1C(=O)N1CCC[C@H]1C(=O)N[C@@H](Cc1ccccc1)C(=O)N[C@@H](CCCNC(=N)N)C(=O)N1CCC[C@H]1C(=O)N1CCC[C@H]1C(=O)N[C@H](C(=O)N[C@@H](CCCNC(=N)N)C(=O)N1CCC[C@H]1C(=O)N1CCC[C@H]1C(=O)N[C@H](C(=O)N[C@@H](Cc1ccccc1)C(=O)N1CCC[C@H]1C(=O)N1CCC[C@H]1C(=O)N[C@H](C(=O)N[C@@H](CCCNC(=N)N)C(=O)N1CCC[C@H]1C(=O)N1CCC[C@H]1C(=O)N[C@@H](Cc1ccccc1)C(=O)N[C@@H](CCCNC(=N)N)C(=O)N1CCC[C@H]1C(=O)N1CCC[C@H]1C(=O)N[C@@H](CC(C)C)C(=O)NCC(=O)N1CCC[C@H]1C(=O)N[C@@H](Cc1ccccc1)C(=O)N1CCC[C@H]1C(=O)O)[C@@H](C)CC)[C@@H](C)CC)[C@@H](C)CC)[C@@H](C)CC | broth dilution | K12 BW25113 |  |  | 2.6 µM
CC1(C)SC2C(NC(=O)C(NC(=O)C3=C(O)C(Cc4ccccc4)NC3=O)c3ccccc3)C(=O)N2C1C(=O)O (centres unmarked) | broth microdilution | isolate IU, CTX-M-14, TEM-1 | together with: clavulanic acid 6 µg/mL |  | 100 µg/mL
C[C@@H](O)[C@H]1C(=O)N2C(C(=O)O)=C(S[C@@H]3CN[C@H](C(=O)N(C)C)C3)[C@H](C)[C@H]12 |  | DH5α empty vector |  |  | ≤ 0.06 µg/mL
CC(C)C[C@@H](NC(=O)CNC(=O)[C@@H](CCCCN)NC(=O)[C@@H](CC(C)C)NC(=O)[C@@H](CCCCN)NC(=O)[C@@H](CCCNC(=N)N)NC(=O)[C@@H](CC(C)C)NC(=O)[C@@H](CC(C)C)NC(=O)[C@@H](CCCNC(=N)N)NC(=O)[C@H](N)CCCNC(=N)N)C(=O)N[C@H](CCCCN)C(=O)N[C@H](CCCCN)C(=O)N[C@H](Cc1ccc(O)cc1)C(=O)N[C@H](CC(C)C)C(=O)N[C@H](Cc1ccc(O)cc1)C(=O)N[C@H](Cc1ccccc1)C(=O)N[C@H](CCCCN)C(=O)N[C@H](CC(C)C)C(=O)N[C@H](CCC(N)=O)C(=O)N[C@H](CC(C)C)C(=O)N[C@H](CC(C)C)C(=O)N[C@H](CCCCN)C(=O)N[C@H](CCCCN)C(N)=O |  | KCTC 1682, Mueller-Hinton broth | together with: 2.5 mM CaCl2 |  | 8 µM
CC1(C)SC2C(NC(=O)C(NC(=O)C3=C(O)CNC3=O)c3ccccc3)C(=O)N2C1C(=O)O (centres unmarked) | broth microdilution | ATCC 35218, low-level TEM-1 | together with: clavulanic acid 6 µg/mL |  | > 200 µg/mL
CC[C@H](C)[C@H](NC(=O)CNC(=O)[C@H](CC(=O)O)NC(=O)[C@H](CCCNC(=N)N)NC(=O)[C@@H](NC(=O)[C@H](CC(N)=O)NC(=O)[C@H](CCCNC(=N)N)NC(=O)CNC(=O)[C@@H](NC(=O)[C@H](CCCCN)NC(=O)[C@H](CCC(=O)O)NC(=O)[C@@H](NC(=O)[C@H](CCCCN)NC(=O)[C@H](CCCCN)NC(=O)[C@H](Cc1ccccc1)NC(=O)[C@@H](NC(=O)[C@H](CCCCN)NC(=O)[C@H](Cc1c[nH]c2ccccc12)NC(=O)[C@@H](N)CCC(=O)O)[C@@H](C)CC)[C@@H](C)CC)C(C)C)C(C)C)C(=O)N[C@H](C(=O)N[C@@H](CCCCN)C(=O)N[C@@H](C)C(=O)NCC(=O)N1CCC[C@H]1C(=O)N[C@@H](C)C(=O)N[C@H](C(=O)N[C@@H](C)C(=O)N[C@H](C(=O)N[C@H](C(=O)NCC(=O)N[C@@H](CCC(N)=O)C(=O)N[C@@H](C)C(=O)N[C@@H](C)C(=O)N[C@H](C(=O)N[C@H](C(=O)N[C@H](C(=O)N[C@@H](CCCCN)C(N)=O)C(C)C)C(C)C)[C@@H](C)O)C(C)C)C(C)C)C(C)C)[C@@H](C)CC |  | K1 ATCC 700973, Mueller-Hinton broth | 16 h, 37 °C | growth inhibition over 99% | 8 µM
C[C@H]1[C@H](NC(=O)/C(=N\OC(C)(C)C(=O)O)c2csc(N)n2)C(=O)N1S(=O)(=O)O | broth microdilution | ATCC 2469, NDM-positive | compound alone |  | 8 µg/mL
C[C@@H](O)[C@H]1C(=O)N2C(C(=O)O)=C(S[C@@H]3CN[C@H](C(=O)N(C)C)C3)[C@H](C)[C@H]12 |  | 1191008, multidrug-resistant |  |  | 0.015 µg/mL
Cc1ccc2[nH]c3c(c2c1)CCCC3NCCc1ccc(O)cc1 (centres unmarked) | broth microdilution | MB5746 efflux-deficient hyperpermeable |  |  | 16 µg/mL
CC[C@H](C)[C@H](NC(=O)[C@H](C)NC(=O)[C@H](CCCCN)NC(=O)[C@H](CCCNC(=N)N)NC(=O)[C@H](CCCCN)NC(=O)[C@H](CCCNC(=N)N)NC(=O)[C@H](CCCCN)NC(=O)[C@@H](N)CCCNC(=N)N)C(=O)N[C@@H](CO)C(=O)NCC(=O)N[C@@H](CO)C(=O)N[C@@H](CC(C)C)C(=O)N[C@H](C(=O)N[C@H](C(=O)N[C@@H](CC(C)C)C(=O)N[C@@H](Cc1ccccc1)C(=O)NCC(=O)N[C@@H](Cc1ccc(O)cc1)C(N)=O)[C@@H](C)O)C(C)C | broth microdilution | ATCC 25922 | highest value reported |  | 8 µM
CC[C@H](C)[C@H](NC(=O)[C@H](CC(C)C)NC(=O)[C@H](CCCNC(=N)N)NC(=O)[C@@H](N)CCCNC(=N)N)C(=O)N[C@@H](CCCNC(=N)N)C(=O)N[C@@H](CCCCN)C(=O)N[C@@H](CC(C)C)C(=O)N[C@@H](CCCCN)C(=O)NCC(=O)N[C@@H](CC(C)C)C(=O)N[C@@H](CCCCN)C(=O)N[C@@H](CCCCN)C(=O)N[C@@H](Cc1ccc(O)cc1)C(=O)N[C@@H](CC(C)C)C(=O)N[C@@H](Cc1ccc(O)cc1)C(=O)N[C@@H](Cc1ccccc1)C(=O)N[C@@H](CCCCN)C(=O)N[C@@H](CC(C)C)C(=O)N[C@@H](CCC(N)=O)C(=O)N[C@@H](CC(C)C)C(=O)N[C@@H](CC(C)C)C(=O)N[C@@H](CCCCN)C(=O)N[C@@H](CCCCN)C(N)=O | broth microdilution | KCTC 1682, Mueller-Hinton broth | no added salt |  | 8 µM
CC[C@H](C)[C@H](NC(=O)[C@H](CCCCN)NC(=O)[C@@H]1CCCN1C(=O)[C@H](CCCNC(=N)N)NC(=O)[C@H](Cc1ccc(O)cc1)NC(=O)[C@H](CCCNC(=N)N)NC(=O)[C@H](CCCNC(=N)N)NC(=O)[C@@H](NC(=O)[C@H](CCCNC(=N)N)NC(=O)[C@H](CCCNC(=N)N)NC(=O)[C@H](CC(C)C)NC(=O)[C@H](Cc1ccccc1)NC(=O)[C@H](CCCNC(=N)N)NC(=O)[C@H](CO)NC(=O)[C@H](Cc1ccccc1)NC(=O)[C@@H](N)CCCNC(=N)N)C(C)C)C(=O)N[C@@H](CO)C(=O)N[C@@H](Cc1ccccc1)C(=O)N[C@@H](CC(N)=O)C(=O)N[C@@H](CC(C)C)C(=O)N[C@@H](CCC(=O)O)C(=O)N1CCC[C@H]1C(=O)N[C@@H](Cc1ccccc1)C(=O)N[C@@H](Cc1ccccc1)C(=O)N[C@@H](CCCCN)C(=O)N[C@@H](Cc1ccccc1)C(=O)O | broth microdilution | K88, Mueller-Hinton broth | 37 °C |  | 1.27 µM
NCCCC1CN(c2ccc3c(n2)NC(=O)CO3)C(=O)O1 (centres unmarked) |  | ATCC 25922 |  |  | 80 µg/mL
CC[C@H](C)[C@H](NC(=O)[C@H](CCCNC(=N)N)NC(=O)[C@H](CCC(N)=O)NC(=O)[C@@H](NC(=O)[C@@H](NC(=O)[C@H](CCCNC(=N)N)NC(=O)[C@@H](N)CCCCN)[C@@H](C)CC)C(C)C)C(=O)N[C@@H](C)C(=O)N[C@@H](CC(=O)O)C(=O)N[C@@H](Cc1ccccc1)C(=O)N[C@@H](CC(C)C)C(=O)N[C@@H](CCCNC(=N)N)C(N)=O | broth microdilution | K12 | 16 h, 37 °C |  | 112 ± 44 µM
N=C(N)NCCC[C@H](NC(=O)[C@H](Cc1c[nH]c2ccccc12)NC(=O)[C@H](CCCNC(=N)N)NC(=O)[C@@H](N)Cc1c[nH]c2ccccc12)C(=O)N[C@@H](Cc1ccccc1)C(=O)N[C@@H](CCC(N)=O)C(=O)N[C@@H](Cc1ccccc1)C(=O)N[C@@H](CCC(N)=O)C(=O)N[C@@H](Cc1ccccc1)C(=O)N[C@@H](CCCCN)C(N)=O | broth microdilution, optical density |  |  |  | 18 µM
CC1(C)CC[C@]2(C(=O)O)CC[C@]3(C)C(=CC[C@@H]4[C@@]5(C)CC[C@H](O)C(C)(C)[C@@H]5CC[C@]43C)[C@@H]2C1 |  | ZJ487, NDM-1/MCR-1 |  |  | 512 µg/mL
